# Assay results collected from several papers.
# Numbers after ± are the reported error.
# VIPR2: Vasoactive intestinal polypeptide receptor 2 (VIPR2, Homo sapiens, UniProt P41587)
# Sequence of UniProt P41587 (whole entry, looked up): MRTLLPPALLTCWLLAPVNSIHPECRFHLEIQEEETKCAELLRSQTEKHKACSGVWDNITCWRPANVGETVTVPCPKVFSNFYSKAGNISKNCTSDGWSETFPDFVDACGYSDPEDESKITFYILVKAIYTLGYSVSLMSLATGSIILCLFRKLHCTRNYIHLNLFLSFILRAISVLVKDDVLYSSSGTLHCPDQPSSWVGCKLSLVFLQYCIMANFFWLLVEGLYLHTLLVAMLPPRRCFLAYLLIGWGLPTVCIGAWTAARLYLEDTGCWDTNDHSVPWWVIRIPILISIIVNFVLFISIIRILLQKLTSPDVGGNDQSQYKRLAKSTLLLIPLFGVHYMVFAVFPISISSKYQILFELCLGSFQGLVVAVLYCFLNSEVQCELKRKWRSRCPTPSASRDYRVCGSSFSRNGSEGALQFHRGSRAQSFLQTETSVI
# Sequence of UniProt P41143 (whole entry, unmodified, looked up): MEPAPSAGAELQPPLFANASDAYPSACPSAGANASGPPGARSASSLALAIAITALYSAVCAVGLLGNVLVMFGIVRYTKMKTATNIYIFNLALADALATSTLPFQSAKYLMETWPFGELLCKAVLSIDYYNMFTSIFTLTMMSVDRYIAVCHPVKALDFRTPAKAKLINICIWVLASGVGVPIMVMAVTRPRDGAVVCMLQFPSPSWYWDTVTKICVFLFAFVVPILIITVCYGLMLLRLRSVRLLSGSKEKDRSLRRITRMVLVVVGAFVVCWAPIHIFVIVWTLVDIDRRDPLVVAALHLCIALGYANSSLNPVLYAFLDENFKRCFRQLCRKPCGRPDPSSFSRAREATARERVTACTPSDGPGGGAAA
# Sequence of UniProt P50406 (whole entry, looked up): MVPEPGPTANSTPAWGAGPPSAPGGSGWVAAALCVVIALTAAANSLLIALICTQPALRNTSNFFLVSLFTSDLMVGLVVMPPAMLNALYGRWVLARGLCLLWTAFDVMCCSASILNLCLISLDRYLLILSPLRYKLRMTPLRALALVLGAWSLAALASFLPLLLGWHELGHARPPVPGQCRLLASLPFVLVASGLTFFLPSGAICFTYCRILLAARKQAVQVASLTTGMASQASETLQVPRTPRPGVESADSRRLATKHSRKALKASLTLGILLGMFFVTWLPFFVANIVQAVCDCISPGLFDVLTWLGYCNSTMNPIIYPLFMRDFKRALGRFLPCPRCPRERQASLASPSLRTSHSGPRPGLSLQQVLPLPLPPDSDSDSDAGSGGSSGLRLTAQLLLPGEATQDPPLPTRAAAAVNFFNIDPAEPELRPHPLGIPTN
# Sequence of UniProt P08588 (whole entry, looked up): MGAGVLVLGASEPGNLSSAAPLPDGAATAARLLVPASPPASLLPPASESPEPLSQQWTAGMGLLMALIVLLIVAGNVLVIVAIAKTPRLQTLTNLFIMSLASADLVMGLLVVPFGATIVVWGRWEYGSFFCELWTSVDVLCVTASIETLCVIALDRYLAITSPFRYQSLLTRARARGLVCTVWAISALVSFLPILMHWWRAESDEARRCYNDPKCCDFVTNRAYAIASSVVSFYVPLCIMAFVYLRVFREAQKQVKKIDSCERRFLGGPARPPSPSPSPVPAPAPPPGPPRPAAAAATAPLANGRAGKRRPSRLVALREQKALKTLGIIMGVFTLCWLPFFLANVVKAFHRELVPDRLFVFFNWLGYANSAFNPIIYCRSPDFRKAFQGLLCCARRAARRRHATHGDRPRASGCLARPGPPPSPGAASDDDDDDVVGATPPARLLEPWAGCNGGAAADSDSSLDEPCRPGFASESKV
# Sequence of UniProt P51878 (whole entry, looked up): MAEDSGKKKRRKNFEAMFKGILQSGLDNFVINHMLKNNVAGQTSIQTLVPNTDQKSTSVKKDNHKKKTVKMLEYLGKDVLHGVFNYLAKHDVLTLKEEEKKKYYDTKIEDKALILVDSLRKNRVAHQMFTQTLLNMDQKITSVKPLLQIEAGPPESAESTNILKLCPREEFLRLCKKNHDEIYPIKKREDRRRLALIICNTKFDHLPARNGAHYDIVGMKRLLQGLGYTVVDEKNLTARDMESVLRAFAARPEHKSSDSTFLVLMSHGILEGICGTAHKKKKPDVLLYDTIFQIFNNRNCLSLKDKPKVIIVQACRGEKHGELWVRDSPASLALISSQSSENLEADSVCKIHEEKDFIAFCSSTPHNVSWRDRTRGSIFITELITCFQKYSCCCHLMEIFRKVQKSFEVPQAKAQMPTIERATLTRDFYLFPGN
# Sequence of UniProt P55786 (whole entry, looked up): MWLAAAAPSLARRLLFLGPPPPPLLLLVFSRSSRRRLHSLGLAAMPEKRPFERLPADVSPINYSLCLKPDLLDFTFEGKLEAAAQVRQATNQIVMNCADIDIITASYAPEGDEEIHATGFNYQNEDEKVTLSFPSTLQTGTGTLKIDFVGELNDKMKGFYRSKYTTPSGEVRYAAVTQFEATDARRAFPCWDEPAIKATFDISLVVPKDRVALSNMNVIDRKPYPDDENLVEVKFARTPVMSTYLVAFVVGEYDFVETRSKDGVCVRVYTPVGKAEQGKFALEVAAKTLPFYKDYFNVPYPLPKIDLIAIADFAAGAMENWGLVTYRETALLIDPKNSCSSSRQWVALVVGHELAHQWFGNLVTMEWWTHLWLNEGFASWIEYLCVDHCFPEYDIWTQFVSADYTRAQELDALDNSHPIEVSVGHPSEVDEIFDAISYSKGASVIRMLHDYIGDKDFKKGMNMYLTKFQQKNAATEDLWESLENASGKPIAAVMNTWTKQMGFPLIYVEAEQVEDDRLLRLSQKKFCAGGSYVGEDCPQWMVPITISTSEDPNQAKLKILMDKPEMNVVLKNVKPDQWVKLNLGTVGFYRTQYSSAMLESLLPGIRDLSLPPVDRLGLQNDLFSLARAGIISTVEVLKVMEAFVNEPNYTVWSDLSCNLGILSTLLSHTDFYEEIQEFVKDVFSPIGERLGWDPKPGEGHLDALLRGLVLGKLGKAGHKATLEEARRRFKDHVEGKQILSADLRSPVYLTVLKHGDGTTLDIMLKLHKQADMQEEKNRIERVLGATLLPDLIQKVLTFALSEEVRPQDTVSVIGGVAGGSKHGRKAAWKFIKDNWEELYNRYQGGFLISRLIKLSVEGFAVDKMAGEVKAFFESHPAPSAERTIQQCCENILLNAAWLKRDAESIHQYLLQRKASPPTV
# Sequence of UniProt P21554 (whole entry, unmodified, looked up): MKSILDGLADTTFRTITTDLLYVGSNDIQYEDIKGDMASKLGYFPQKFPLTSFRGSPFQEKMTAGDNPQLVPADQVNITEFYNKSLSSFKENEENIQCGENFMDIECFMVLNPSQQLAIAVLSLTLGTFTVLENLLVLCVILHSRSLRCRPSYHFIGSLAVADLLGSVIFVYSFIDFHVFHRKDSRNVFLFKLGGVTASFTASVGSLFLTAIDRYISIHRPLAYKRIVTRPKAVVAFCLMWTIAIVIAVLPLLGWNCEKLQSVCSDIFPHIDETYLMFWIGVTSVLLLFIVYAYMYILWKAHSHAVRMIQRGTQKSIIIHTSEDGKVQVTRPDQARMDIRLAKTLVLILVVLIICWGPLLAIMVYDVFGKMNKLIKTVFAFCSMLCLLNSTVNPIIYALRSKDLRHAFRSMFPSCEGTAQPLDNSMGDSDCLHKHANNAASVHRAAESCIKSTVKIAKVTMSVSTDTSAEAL
SMILES,target or system,test,test system,setting,measurement,result
CSCC[C@H](NC(=O)[C@H](CCC(N)=O)NC(=O)[C@H](CCCCN)NC(=O)[C@H](CCCNC(=N)N)NC(=O)[C@H](Cc1ccc(O)cc1)NC(=O)[C@H](CCCNC(=N)N)NC(=O)[C@H](CO)NC(=O)[C@H](Cc1ccc(O)cc1)NC(=O)[C@H](CO)NC(=O)[C@H](CC(=O)O)NC(=O)[C@@H](NC(=O)[C@@H](N)Cc1ccccc1)[C@@H](C)O)C(=O)N[C@@H](C)C(=O)N[C@H](C(=O)N[C@@H](CCCCN)C(=O)N[C@@H](CCCCn1cc(C[C@H](NC(=O)CNC(=O)[C@H](CO)NC(=O)[C@H](CCCNC(=N)N)NC(=O)[C@H](CO)NC(=O)[C@H](CC(C)C)NC(=O)[C@H](CC(C)C)NC(=O)CNC(=O)[C@H](C)NC(=O)[C@H](CC(C)C)NC(=O)[C@H](CCCNC(=N)N)NC(=O)[C@H](Cc2c[nH]cn2)NC(=O)[C@@H](NC(=O)[C@@H](N)C(C)C)[C@@H](C)O)C(=O)N[C@H](C(=O)N[C@H](C(=O)N[C@@H](CCCCN)C(=O)N[C@@H](CC(N)=O)C(=O)N[C@@H](CC(N)=O)C(=O)N[C@@H](Cc2ccccc2)C(=O)N[C@H](C(=O)N2CCC[C@H]2C(=O)N[C@H](C(=O)N[C@@H](CC(N)=O)C(=O)N[C@H](C(=O)NCC(=O)N[C@@H](CO)C(=O)N[C@@H](CCCCN)C(=O)N[C@@H](C)C(=O)N[C@@H](Cc2ccccc2)C(N)=O)C(C)C)[C@@H](C)O)C(C)C)C(C)C)C(C)C)nn1)C(=O)N[C@@H](Cc1ccc(O)cc1)C(=O)N[C@@H](CC(C)C)C(=O)N[C@@H](C)C(=O)N[C@@H](C)C(=O)N[C@H](C(=O)N[C@@H](CC(C)C)C(=O)NCC(=O)N[C@@H](CCCCN)C(=O)N[C@@H](CCCNC(=N)N)C(=O)N[C@@H](Cc1ccc(O)cc1)C(=O)N[C@@H](CCCCN)C(=O)N[C@@H](CCC(N)=O)C(=O)N[C@@H](CCCNC(=N)N)C(=O)N[C@H](C(=O)N[C@@H](CCCCN)C(=O)N[C@@H](CC(N)=O)C(=O)N[C@@H](CCCCN)C(N)=O)C(C)C)C(C)C)C(C)C,VIPR2,"cAMP accumulation, antagonist",,with: VIP,Kb,240 nM
CN(C)c1ncnc2c1ncn2[C@@H]1O[C@H](CCl)[C@@H](NC(=O)[C@H](CSC23CC4CC(CC(C4)C2)C3)NC(=O)OC(C)(C)C)[C@H]1O,"Puromycin-sensitive aminopeptidase (Homo sapiens, UniProt P55786)","enzyme activity, inhibitor, fluorescence",,,IC50,2300 nM
Cc1ccc2c(C(C[N+](=O)[O-])c3cccs3)c(-c3ccccc3)[nH]c2c1 (stereo not drawn),"Cannabinoid receptor 1 (CNR1, Homo sapiens, UniProt P21554, Y397F)","β-arrestin recruitment, agonist, luciferase",,,EC50,190 nM
CC(C)CC(C(=O)N1CC2(CC1C#N)C(=O)Nc1ccccc12)N(C)C(=O)c1cc2c(F)cc(F)c(F)c2[nH]1 (stereo not drawn),"Caspase-5 (CASP5, Homo sapiens, UniProt P51878)","enzyme activity, inhibitor",,,IC50,> 100000 nM
C[C@@H](Cc1ccsc1)NC(=O)NC[C@H](Cc1ccc(O)cc1)N(C)C,"5-hydroxytryptamine receptor 6 (HTR6, Homo sapiens, UniProt P50406)",,,,Ki,28000 nM
CSCC[C@H](NC(=O)[C@H](CCC(N)=O)NC(=O)[C@H](CCCCN)NC(=O)[C@H](CCCNC(=N)N)NC(=O)[C@H](Cc1ccc(O)cc1)NC(=O)[C@H](CCCNC(=N)N)NC(=O)[C@H](CO)NC(=O)[C@H](Cc1ccc(O)cc1)NC(=O)[C@H](CO)NC(=O)[C@H](CC(=O)O)NC(=O)[C@@H](NC(=O)[C@@H](N)Cc1ccccc1)[C@@H](C)O)C(=O)N[C@@H](C)C(=O)N[C@H](C(=O)N[C@@H](CCCCN)C(=O)N[C@@H](CCCCN)C(=O)N[C@@H](Cc1ccc(O)cc1)C(=O)N[C@@H](CC(C)C)C(=O)N[C@@H](C)C(=O)N[C@@H](C)C(=O)N[C@H](C(=O)N[C@@H](CC(C)C)C(=O)NCC(=O)N[C@@H](CCCCN)C(=O)N[C@@H](CCCNC(=N)N)C(=O)N[C@@H](Cc1ccc(O)cc1)C(=O)N[C@@H](CCCCN)C(=O)N[C@@H](CCC(N)=O)C(=O)N[C@@H](CCCNC(=N)N)C(=O)N[C@H](C(=O)N[C@@H](CCCCN)C(=O)N[C@@H](CC(N)=O)C(=O)N[C@@H](CCCCn1cc(C[C@H](NC(=O)CNC(=O)[C@H](CO)NC(=O)[C@H](CCCNC(=N)N)NC(=O)[C@H](CO)NC(=O)[C@H](CC(C)C)NC(=O)[C@H](CC(C)C)NC(=O)CNC(=O)[C@H](C)NC(=O)[C@H](CC(C)C)NC(=O)[C@H](CCCNC(=N)N)NC(=O)[C@H](Cc2c[nH]cn2)NC(=O)[C@@H](NC(=O)[C@@H](N)C(C)C)[C@@H](C)O)C(=O)N[C@H](C(=O)N[C@H](C(=O)N[C@@H](CCCCN)C(=O)N[C@@H](CC(N)=O)C(=O)N[C@@H](CC(N)=O)C(=O)N[C@@H](Cc2ccccc2)C(=O)N[C@H](C(=O)N2CCC[C@H]2C(=O)N[C@H](C(=O)N[C@@H](CC(N)=O)C(=O)N[C@H](C(=O)NCC(=O)N[C@@H](CO)C(=O)N[C@@H](CCCCN)C(=O)N[C@@H](C)C(=O)N[C@@H](Cc2ccccc2)C(N)=O)C(C)C)[C@@H](C)O)C(C)C)C(C)C)C(C)C)nn1)C(N)=O)C(C)C)C(C)C)C(C)C,VIPR2,"cAMP accumulation, antagonist",,with: PACAP-27,Kb,174 nM
O=C1NC2(CC2)COc2ncc(F)cc2[C@H]2COCCN2c2ccn3ncc1c3n2,,,"Sprague-Dawley rat, female, ovaries","oral, 5 mg/kg/day, 4 weeks, end of treatment",organ-to-body weight ratio,0.037 ± 0.006%
CN(C)[C@H](CNC(=O)/C=C/c1cccc2ccccc12)Cc1ccc(O)cc1,"Beta-1 adrenergic receptor (ADRB1, Homo sapiens, UniProt P08588)",cell-free assay,,,Ki,2300 nM
CCN(CC)C(=O)c1ccc(C(c2cccc(O)c2)N2CC(C)N(Cc3ccccc3)CC2C)cc1 (stereo not drawn),"Delta-type opioid receptor (OPRD1, Homo sapiens, UniProt P41143, Y129A)",,,,Ki,1.91 ± 0.06 nM

# Some of these lines once more:
SMILES,target or system,test,test system,setting,measurement,result
O=C1NC2(CC2)COc2ncc(F)cc2[C@H]2COCCN2c2ccn3ncc1c3n2,,,"Sprague-Dawley rat, female, ovaries","oral, 5 mg/kg/day, 4 weeks, end of treatment",organ-to-body weight ratio,0.037 ± 0.006%
